Measurements from different studies.
Each numbered part is a random draw from the data of one study; scales do not carry over between parts. Positions count from the first letter of the parent shown.

Set 1 — method: protein-binding microarray; molecule type: double-stranded DNA, one strand shown; medium: in vitro; concentration: 2200 nM top; notes: 60-bp whole probe; with: salmon DNA 0.4 mg/ml; relative to: random background probes; reading: higher = stronger binding; quantity: fitted relative affinity; all sequences stand within: GCCTAGCAC … GTCTTGATTCGCTTGACGCTGCTG
Target: Interferon regulatory factor 7, full length, phosphomimetic (IRF7, Homo sapiens, UniProt Q92985, residues 1-503, S471D/S472D/S475D/S476D/S477D/S483D/S484D/S487D)
Target sequence (chain): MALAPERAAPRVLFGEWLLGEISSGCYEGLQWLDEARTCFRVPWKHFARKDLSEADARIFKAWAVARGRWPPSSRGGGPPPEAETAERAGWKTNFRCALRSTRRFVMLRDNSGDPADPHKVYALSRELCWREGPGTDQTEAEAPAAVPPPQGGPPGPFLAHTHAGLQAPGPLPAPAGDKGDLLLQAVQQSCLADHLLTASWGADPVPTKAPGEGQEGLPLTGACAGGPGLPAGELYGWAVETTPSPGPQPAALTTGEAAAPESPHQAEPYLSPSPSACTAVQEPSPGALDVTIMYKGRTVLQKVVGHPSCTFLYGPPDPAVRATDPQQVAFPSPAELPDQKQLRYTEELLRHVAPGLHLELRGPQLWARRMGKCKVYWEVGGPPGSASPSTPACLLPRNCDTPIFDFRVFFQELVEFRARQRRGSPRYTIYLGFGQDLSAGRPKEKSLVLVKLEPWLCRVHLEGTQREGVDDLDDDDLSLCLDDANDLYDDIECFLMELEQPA
Oligonucleotide = TTAGGACTGCGACTGCTTTAGTGCTAG; value = -0.266 z-score
Oligonucleotide = TCATCTCTTTCCTTCTTACTGTGCTAG; value = 3.37 z-score
Oligonucleotide = TTTGGACTGGGTCTCGGTTAGTGCTAG; value = 0.129 z-score
Oligonucleotide = TCAGATTTCCCCACCATACTGTGCTAG; value = 1.66 z-score
Oligonucleotide = TTAGAACTGGGGTATCGAGTAGTGCTA; value = -0.0279 z-score
Oligonucleotide = CAACATCTGCAAGATCCACAAGTGCTA; value = 0.385 z-score
Oligonucleotide = TTAGGACTGGGTATGGGTTAGTGCTAG; value = -0.618 z-score
Oligonucleotide = GACGGAGTGGGTTTCGGGACGTGCTAG; value = 1.18 z-score
Oligonucleotide = GACGATTTCGGTATCGGGACGTGCTAG; value = 4.07 z-score
Oligonucleotide = GTAGATATCAGTATCGATTAGTGCTAG; value = 0.306 z-score
Oligonucleotide = GACGGACTGGGGAATGGGGACGTGCTA; value = -0.594 z-score
Oligonucleotide = GACGTTATCGACTATCGGGACGTGCTA; value = 0.292 z-score
Oligonucleotide = CTTTCTTTTTTTCTTTTATTGTGCTAG; value = 5.99 z-score
Oligonucleotide = TTAGGTTTCGACACTCGGTTAGTGCTA; value = 3.44 z-score
Oligonucleotide = TCACTTCTATAGGCTAGAACTGTGCTA; value = 0.779 z-score
Oligonucleotide = GACGGACTGCTTCTCCGGACGTGCTAG; value = 0.243 z-score
Oligonucleotide = TTAGGTTTCCTTATGCTTTAGTGCTAG; value = 1.69 z-score
Oligonucleotide = GACGGTCTCGGTATCGGGCCGTGCTAG; value = -0.249 z-score
Oligonucleotide = TTAGATATCGGGTTTGGATTAGTGCTA; value = 0.426 z-score

Set 2 — method: RNA Bind-n-Seq; molecule type: RNA; medium: in vitro; concentration: not given; relative to: input RNA pool; reading: higher = stronger binding; quantity: bound/input enrichment
Target: RING finger protein unkempt homolog, zinc fingers 1-6, GST-SBP tag (UNK, Homo sapiens, UniProt Q9C0B0, residues 30-357)
Chain of UniProt Q9C0B0 (30-357, looked up): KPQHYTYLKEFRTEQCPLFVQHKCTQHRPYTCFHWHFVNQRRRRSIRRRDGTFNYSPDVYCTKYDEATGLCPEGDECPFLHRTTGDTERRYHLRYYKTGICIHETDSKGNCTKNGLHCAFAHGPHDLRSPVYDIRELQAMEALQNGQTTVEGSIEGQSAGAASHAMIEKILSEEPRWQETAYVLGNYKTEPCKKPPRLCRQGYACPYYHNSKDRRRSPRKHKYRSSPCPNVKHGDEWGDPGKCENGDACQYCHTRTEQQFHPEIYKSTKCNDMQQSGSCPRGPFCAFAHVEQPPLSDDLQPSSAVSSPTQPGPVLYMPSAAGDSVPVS
Notes: RNA with constant flanks, human-mouse chimeric sites, ends assumed
All sequences stand within: GGGAGUUCUACAGUCCGACGAUC … CAACAGAGGAUUGAGCAUCA
Oligonucleotide = GCUCUUGGGAAUGUAAUAAGUGCCUUGGGGGACAAGAGCAAGAGAGCCACCCAUGUCCCCUAUAGAGACUCUAAGCUGACAAGACUCUUGCAGGAUUCCCUUGGGGGUAACAGCCAAACC; value = 0.148 ratio
Oligonucleotide = AUGCAGUAUGAGACCAACAGCAUGGACUUCAAAGUUGGGGCAGAUGGGACAGUCUUCGCCACCCGGGAGCUGCAGGUCCCCUCCGAGCAGGUGGCGUUUACCGUCACUGCAUGGGACAGC; value = 0.124 ratio
Oligonucleotide = CCUGCUCAGAUCACCAUGAAAGUAAUCCAAGGCCUAUACAGUGGGGUCACCACAGUGGAACUGGACACCCUGGCUGCUGAGACAGCCGCGACCUUGACCACGAAGCACCCUGACUAUGCC; value = 0.124 ratio
Oligonucleotide = GGGGAGAAACCUUACGAGUGUGUGCAGUGUGGGAAAUCGUAUAGUCAGAGCUCAAACCUUUUUAGACAUCAGAGACGACACAAUGCAGAAAAACUUUUGAAUGUUGUGAAGGUUUAAGAA; value = 0.76 ratio
Oligonucleotide = AGCACAACCCCAGCAAAGCUAAGAAAUCCUUGUACAAGUGAACAAAACUGCACCAGCCCAUUUAGCUACAAAAAUGUGCUUAGUCUUACUGACAGAGGAGAAGUAUUCAAUGAACUUGUU; value = 0.416 ratio
Oligonucleotide = ACUCUUGACUCUUUCCAUCCUCUUCCUUUCCCUCUUGAUAUUCAAGGCCAUGAAUCCCAAAAUAACAGUCUUAGUGGGAGGCUAGCAAACAGAGGUGGGUGCCAUCCACCCCAGUGUCUC; value = 0.392 ratio
Oligonucleotide = AGAGCCCAGGAUGUUGAUGCUACAAAUCCAAAUUACGAAAUUAUGUGUAUGAUCAGAGACUUCAGAGGGAGCUUGGAUUAUAGACCACUAACAACAGCAGAUCCUAUUGAUGAACAUAGG; value = 0.489 ratio
Oligonucleotide = AGGAGGAGGUUAAAGGGUGAGAGUGGGGUGGAAGACUGUGUCAUGGCUCUGGAGACAUUGUUUAGUGUUCUGCUUUCUCUGUGCAGACUGAUGGCCCCUUACACGCCCUUUCUGACUGAG; value = 0.104 ratio

Set 3 — method: DHFR PCA, deep sequencing; medium: yeast; with: (+)-ABA 17 µM; relative to: wild-type fitted maximum; reading: higher = stronger binding; quantity: relative binding score
Target: ABI1, truncated, D143A, DHFR fusion (Arabidopsis thaliana)
Notes: methotrexate growth selection, single substitutions
Starting sequence: PYL1, truncated, DHFR fusion (Arabidopsis thaliana); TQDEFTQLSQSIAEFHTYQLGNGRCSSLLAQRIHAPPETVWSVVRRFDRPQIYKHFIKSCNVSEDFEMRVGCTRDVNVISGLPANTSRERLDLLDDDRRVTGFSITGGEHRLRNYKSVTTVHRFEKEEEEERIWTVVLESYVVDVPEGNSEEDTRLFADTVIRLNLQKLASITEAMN
Substitution = T6I; value = 80.8%
Substitution = T101A; value = 58.3%
Substitution = S59R; value = 69.9%
Substitution = T154V; value = 89.2%
Substitution = D92C; value = 36.9%
Substitution = V43S; value = 5.66%
Substitution = V161I; value = 102%
Substitution = V136C; value = 73.1%
Substitution = E147M; value = 73.3%
Substitution = L138H; value = 33.6%
Substitution = R99I; value = -7.26%
Substitution = D97F; value = 71.8%
Substitution = V100N; value = -10.1%
Substitution = H34F; value = 80.3%
Substitution = R69H; value = 75.5%
Substitution = E89S; value = -16.3%
Substitution = R111M; value = 52.9%

Set 4 — method: universal PBM; molecule type: double-stranded DNA, one strand shown; medium: in vitro; concentration: 600 nM; reading: higher = stronger binding; quantity: E-score
Target: Sal-like protein 4, full length isoform A (SALL4, Homo sapiens, UniProt Q9UJQ4, residues 1-1053)
Chain of UniProt Q9UJQ4 (whole entry, looked up): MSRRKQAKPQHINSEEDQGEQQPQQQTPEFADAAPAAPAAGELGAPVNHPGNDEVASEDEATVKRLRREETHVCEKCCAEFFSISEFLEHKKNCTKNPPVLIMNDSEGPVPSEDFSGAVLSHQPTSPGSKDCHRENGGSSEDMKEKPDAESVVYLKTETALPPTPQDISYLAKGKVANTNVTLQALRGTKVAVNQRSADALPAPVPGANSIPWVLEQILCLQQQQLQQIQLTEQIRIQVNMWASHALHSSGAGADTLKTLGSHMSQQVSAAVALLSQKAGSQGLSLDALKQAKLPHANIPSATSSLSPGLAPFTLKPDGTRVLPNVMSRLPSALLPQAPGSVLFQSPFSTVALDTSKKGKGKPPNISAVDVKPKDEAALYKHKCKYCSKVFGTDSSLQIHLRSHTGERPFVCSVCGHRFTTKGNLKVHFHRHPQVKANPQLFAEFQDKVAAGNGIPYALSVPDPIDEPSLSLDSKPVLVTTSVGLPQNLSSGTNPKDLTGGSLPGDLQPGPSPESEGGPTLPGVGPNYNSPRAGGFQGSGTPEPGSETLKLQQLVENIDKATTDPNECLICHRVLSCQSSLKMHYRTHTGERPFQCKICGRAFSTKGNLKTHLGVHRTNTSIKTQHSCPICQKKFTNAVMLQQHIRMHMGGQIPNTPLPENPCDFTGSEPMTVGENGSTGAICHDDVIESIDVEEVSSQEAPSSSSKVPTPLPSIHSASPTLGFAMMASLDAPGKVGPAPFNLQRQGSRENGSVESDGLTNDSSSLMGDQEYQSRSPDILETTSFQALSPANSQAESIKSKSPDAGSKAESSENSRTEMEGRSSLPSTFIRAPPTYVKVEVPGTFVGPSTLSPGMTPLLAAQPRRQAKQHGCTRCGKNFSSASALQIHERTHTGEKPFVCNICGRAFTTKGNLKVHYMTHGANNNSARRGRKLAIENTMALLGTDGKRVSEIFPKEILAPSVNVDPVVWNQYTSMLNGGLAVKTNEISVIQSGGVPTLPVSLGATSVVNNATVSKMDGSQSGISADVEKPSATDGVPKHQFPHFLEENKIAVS
Notes: 8-mer, flanks averaged, mean of replicates
Oligonucleotide = CCCTTCGC; value = -0.174
Oligonucleotide = CTCACTTC; value = -0.225
Oligonucleotide = CCCCCCGC; value = -0.364
Oligonucleotide = ACGCATCG; value = 0.0395
Oligonucleotide = CGGCACTC; value = -0.222
Oligonucleotide = CCTGGAAA; value = -0.0258
Oligonucleotide = AAGTAAAT; value = 0.371
Oligonucleotide = AGGCTTTG; value = -0.224
Oligonucleotide = CCTGCTTA; value = -0.0946
Oligonucleotide = AACGTTAG; value = 0.15
Oligonucleotide = ATTCCGAA; value = 0.173
Oligonucleotide = ATTGAGTG; value = 0.0818
Oligonucleotide = CATTATTC; value = 0.0959
Oligonucleotide = ACGTAGGG; value = -0.123
Oligonucleotide = CTGCGATA; value = -0.0401
Oligonucleotide = GGTGGGTA; value = -0.0771
Oligonucleotide = CGAATTTC; value = 0.202
Oligonucleotide = GAGCCCTC; value = -0.299
Oligonucleotide = AGATAAAG; value = 0.23
Oligonucleotide = CGCCTGGA; value = -0.268
Oligonucleotide = ACAATCCG; value = 0.00281
Oligonucleotide = ATGTGTTC; value = 0.0396
Oligonucleotide = CCCCGAAG; value = -0.166
Oligonucleotide = CAACGTCA; value = -0.0305
Oligonucleotide = GTGGTAGA; value = -0.138

Set 5 — target: CCND2, cyclin fold, Cln2 fusion (human); method: yeast growth competition, sequencing; medium: yeast; notes: weak parent motif; relative to: not given; reading: higher = stronger binding; quantity: normalised enrichment score
Starting sequence: CDT1 docking peptide (human); PPARRRLRLSVDE; partner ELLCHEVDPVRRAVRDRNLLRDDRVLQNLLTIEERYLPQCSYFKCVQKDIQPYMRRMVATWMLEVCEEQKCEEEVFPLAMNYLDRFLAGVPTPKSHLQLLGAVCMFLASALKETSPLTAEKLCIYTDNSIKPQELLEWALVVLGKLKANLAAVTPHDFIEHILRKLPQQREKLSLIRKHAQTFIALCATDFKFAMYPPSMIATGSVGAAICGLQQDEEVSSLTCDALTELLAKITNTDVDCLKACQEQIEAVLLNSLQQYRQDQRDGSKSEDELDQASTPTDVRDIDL
Substitution = L9A; value = 0.248
Substitution = E13A; value = 0.331
Substitution = R5A; value = 0.08
Substitution = L9F; value = 0.458
Substitution = R4A; value = 0.268
Substitution = R6A; value = 0.254
Substitution = S10A; value = -0.253

Other studies, line by line
Substance = PhoQ, residues 284 288 289 292 302 303 SVTLVV; target = PhoP, residues 12 14 15 18 19 IQFRS (Escherichia coli, UniProt P23836); assay = Sort-seq, measured: YFP reporter; system = E. coli; setting = PhoQ-PhoP variant library, with: 10 µM Mg2+; how to read = relative to: high Mg2+ state, higher = stronger signaling; quantity = fold induction; value = 11.1
